# Assay results collected from several papers.
# Parts stem from different laboratories: compare values within a part only. “And” joins repeats or separate records; there may be more than shown.
# Sequence of UniProt Q96D53 (whole entry, looked up): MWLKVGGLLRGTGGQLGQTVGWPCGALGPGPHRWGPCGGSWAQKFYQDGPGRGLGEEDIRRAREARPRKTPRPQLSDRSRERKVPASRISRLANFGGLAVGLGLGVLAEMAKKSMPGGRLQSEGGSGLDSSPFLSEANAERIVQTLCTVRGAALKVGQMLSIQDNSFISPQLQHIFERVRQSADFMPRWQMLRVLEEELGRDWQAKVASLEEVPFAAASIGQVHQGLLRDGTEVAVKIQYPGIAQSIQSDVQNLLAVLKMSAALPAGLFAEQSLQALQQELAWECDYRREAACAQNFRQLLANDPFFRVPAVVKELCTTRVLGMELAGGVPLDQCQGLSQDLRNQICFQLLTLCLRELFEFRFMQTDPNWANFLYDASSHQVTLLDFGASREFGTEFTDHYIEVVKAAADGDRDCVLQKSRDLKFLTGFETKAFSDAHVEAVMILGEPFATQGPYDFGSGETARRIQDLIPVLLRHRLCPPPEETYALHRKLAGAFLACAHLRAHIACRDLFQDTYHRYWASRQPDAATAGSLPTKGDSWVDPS
# Sequence of UniProt Q8N752 (whole entry, looked up): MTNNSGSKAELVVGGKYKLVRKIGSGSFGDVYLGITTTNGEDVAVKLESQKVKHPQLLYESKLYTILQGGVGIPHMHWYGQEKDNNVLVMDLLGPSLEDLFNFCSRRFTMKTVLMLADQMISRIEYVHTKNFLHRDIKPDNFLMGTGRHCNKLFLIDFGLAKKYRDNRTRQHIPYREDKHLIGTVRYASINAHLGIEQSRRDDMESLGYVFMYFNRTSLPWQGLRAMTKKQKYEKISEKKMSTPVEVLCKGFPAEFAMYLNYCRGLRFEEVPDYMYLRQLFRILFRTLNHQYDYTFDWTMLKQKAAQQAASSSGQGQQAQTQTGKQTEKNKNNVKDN
# Sequence of UniProt P36896 (whole entry, looked up): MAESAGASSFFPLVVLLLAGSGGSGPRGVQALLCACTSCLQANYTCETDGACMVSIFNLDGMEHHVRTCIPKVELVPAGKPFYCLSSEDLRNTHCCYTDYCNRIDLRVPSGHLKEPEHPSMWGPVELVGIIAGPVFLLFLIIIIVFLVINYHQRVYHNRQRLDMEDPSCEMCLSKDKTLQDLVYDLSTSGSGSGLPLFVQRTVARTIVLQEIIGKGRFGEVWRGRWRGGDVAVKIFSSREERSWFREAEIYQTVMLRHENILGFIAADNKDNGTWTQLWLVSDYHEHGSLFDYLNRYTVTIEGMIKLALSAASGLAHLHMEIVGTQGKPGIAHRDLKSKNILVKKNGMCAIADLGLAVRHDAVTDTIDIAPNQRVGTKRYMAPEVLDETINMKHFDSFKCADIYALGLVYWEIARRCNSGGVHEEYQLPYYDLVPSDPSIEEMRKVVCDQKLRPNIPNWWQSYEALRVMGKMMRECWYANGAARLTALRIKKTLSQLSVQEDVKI
# Sequence of UniProt P42679 (whole entry, looked up): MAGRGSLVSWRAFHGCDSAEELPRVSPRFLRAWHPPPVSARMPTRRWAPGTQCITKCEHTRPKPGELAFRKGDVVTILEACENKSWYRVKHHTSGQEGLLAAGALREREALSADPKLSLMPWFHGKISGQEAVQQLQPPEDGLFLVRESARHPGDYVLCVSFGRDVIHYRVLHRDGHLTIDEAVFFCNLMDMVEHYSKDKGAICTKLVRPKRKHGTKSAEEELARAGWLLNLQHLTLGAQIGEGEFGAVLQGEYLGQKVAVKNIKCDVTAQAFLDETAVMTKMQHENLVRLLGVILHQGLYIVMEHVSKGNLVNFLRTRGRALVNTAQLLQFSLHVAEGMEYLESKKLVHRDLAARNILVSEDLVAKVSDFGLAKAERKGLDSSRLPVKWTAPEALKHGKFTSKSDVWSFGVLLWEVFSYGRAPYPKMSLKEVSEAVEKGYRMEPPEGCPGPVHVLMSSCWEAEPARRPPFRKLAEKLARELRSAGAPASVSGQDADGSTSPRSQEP

# Sample 1
# Target: DNA polymerase theta, ATPase domain (POLQ, Homo sapiens, UniProt O75417)
# Sequence of UniProt O75417 (whole entry, unmodified, looked up): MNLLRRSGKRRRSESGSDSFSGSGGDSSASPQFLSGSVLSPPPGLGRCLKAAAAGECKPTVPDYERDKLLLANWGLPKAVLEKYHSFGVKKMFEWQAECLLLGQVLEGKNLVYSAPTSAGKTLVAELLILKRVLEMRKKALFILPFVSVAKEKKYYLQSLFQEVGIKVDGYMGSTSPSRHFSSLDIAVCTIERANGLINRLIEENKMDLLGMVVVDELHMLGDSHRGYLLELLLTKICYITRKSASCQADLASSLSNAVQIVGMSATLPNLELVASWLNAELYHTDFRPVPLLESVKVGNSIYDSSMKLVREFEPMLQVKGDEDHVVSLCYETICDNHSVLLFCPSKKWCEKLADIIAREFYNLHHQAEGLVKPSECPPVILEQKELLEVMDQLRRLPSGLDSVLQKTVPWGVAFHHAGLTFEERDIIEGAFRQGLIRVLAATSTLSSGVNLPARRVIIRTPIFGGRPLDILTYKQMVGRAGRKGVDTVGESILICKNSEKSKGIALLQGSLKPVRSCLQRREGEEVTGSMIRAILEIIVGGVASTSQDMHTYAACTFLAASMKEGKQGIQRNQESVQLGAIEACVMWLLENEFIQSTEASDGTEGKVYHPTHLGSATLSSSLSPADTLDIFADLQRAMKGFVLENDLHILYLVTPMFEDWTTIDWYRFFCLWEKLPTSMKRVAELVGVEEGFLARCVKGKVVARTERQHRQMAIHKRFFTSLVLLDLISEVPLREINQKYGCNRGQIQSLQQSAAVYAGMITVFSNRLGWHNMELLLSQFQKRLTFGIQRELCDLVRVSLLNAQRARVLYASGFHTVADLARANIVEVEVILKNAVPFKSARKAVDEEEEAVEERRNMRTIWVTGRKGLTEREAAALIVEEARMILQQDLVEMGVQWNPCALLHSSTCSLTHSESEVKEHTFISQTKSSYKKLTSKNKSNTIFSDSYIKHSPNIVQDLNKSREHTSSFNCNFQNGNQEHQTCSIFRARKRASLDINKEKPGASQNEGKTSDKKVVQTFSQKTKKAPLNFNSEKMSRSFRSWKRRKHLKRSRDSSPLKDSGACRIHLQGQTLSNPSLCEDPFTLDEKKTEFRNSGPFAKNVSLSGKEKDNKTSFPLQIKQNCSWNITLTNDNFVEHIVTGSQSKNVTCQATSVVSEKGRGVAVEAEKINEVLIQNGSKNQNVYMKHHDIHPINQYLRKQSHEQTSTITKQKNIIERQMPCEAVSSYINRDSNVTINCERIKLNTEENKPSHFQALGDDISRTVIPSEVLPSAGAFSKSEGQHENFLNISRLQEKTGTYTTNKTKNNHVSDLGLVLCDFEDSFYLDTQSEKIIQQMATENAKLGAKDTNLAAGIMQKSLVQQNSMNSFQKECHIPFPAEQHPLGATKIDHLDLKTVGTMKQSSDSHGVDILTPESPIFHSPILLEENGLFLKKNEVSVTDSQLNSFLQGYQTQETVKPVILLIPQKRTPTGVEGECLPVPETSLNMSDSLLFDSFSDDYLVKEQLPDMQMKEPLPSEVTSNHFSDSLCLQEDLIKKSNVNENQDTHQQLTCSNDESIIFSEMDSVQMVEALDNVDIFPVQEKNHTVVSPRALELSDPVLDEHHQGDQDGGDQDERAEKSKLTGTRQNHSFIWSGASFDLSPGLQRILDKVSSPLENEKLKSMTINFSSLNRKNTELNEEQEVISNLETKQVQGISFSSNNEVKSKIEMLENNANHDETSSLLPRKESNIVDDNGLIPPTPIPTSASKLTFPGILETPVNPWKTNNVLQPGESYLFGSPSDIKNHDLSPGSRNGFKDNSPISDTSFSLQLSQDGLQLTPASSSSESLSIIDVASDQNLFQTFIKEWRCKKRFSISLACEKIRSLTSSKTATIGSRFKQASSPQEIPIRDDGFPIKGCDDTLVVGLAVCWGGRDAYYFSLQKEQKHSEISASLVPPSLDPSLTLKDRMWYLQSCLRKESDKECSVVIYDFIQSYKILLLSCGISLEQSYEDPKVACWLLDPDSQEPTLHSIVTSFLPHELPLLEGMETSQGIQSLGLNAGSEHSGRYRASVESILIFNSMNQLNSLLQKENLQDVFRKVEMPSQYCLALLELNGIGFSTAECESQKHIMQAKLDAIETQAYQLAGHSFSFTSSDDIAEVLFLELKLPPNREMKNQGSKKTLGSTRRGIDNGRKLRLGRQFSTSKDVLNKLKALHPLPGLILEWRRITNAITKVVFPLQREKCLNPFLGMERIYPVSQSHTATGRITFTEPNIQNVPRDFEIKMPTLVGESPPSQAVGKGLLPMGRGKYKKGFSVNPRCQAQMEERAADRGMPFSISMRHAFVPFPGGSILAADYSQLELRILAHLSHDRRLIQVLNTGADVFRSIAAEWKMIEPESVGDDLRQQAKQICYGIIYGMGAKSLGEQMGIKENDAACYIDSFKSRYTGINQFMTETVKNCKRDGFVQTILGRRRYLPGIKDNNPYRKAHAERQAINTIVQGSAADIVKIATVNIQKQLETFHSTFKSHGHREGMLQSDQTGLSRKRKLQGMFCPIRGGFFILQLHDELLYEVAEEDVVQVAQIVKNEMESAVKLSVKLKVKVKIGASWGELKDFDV
# Observed: enzyme activity
# Mode: inhibitor
# Concentration: 77 µM
# Baseline: untreated
Compound,remaining activity
COC(=O)c1c(C)[nH]c(C)c1C(=O)c1ccccc1Cc1ccccc1,105%
CC(C(O)c1ccc(O)cc1)N1CCC(Cc2ccccc2)CC1 (stereo not drawn),104% and 90.7%
COc1cc(N)c(Cl)cc1C(=O)N[C@@H]1CCN(CCCOc2ccc(F)cc2)C[C@@H]1OC,101%
O=C(CCCCCCNC(=O)c1cnc(N(c2ccccc2)c2ccccc2)nc1)NO,101%
COc1ccc(Cn2ccc3ccc(C(=O)NO)cc32)cc1,103%
CNC(=O)c1nn(C)c2c1C(C)(C)Cc1cnc(Nc3ccc(N4CCN(C)CC4)cc3)nc1-2,81.8%
CCC[C@H](N[C@@H](C)C(=O)N1[C@H](C(=O)O)C[C@@H]2CCCC[C@@H]21)C(=O)OCC,89.2%
CN1CCN(c2cccc(Nc3nc4c(-c5ccc(S(C)(=O)=O)cc5)cccn4n3)c2)CC1,101%
O=C1NC(=O)/C(=C/c2ccc3nccc(-c4ccncc4)c3c2)S1,89.2%
CN1CCN(c2nc3cc(C(F)(F)F)ccc3n3cccc23)CC1,109%
CN(C)CC/C=C1/c2ccccc2COc2ccc(CC(=O)O)cc21,98.1%
c1ccc2c(Oc3nc(Nc4ccc(N5CCOCC5)cc4)c4ncn(C5CCCCC5)c4n3)cccc2c1,101%
COc1c2ccoc2nc2c(OC)c(OCC(O)C(C)(C)O)ccc12 (stereo not drawn),101%
CCc1nc(N)nc(N)c1-c1ccc(Cl)cc1,99.8% and 97.9%

# Sample 2
# SMILES: C=CC(=O)N1CCC[C@@H](n2nc(-c3ccc(Oc4ccccc4)cc3)c3c(N)ncnc32)C1
# Mode: inhibitor
# Concentration: 1 µM
target,assay,inhibition
"ANKK1 (Homo sapiens, UniProt Q8NFD2)",,21%
"AAK1 (Homo sapiens, UniProt Q2M2I8)",enzyme activity,1%
"MAPK13 (Homo sapiens, UniProt O15264)",enzyme activity,6%
"BUB1 (Homo sapiens, UniProt O43683)",enzyme activity,1%
"FYN (Homo sapiens, UniProt P06241)",enzyme activity,95%
"MATK (Homo sapiens, UniProt P42679)",,32%
"Ribosomal protein S6 kinase alpha-4, C-terminal kinase domain (RPS6KA4, Homo sapiens, UniProt O75676)",,1%
"STK26 (Homo sapiens, UniProt Q9P289)",,19%
"COQ8B (Homo sapiens, UniProt Q96D53)",enzyme activity,9%
"CSK (Homo sapiens, UniProt P41240)",,88%
"GAK (Homo sapiens, UniProt O14976)",enzyme activity,10%
"DYRK1A (Homo sapiens, UniProt Q13627)",enzyme activity,24%
"ACVR1B (Homo sapiens, UniProt P36896)",enzyme activity,11%
"CSNK1A1L (Homo sapiens, UniProt Q8N752)",enzyme activity,13%
"CSNK1G3 (Homo sapiens, UniProt Q9Y6M4)",enzyme activity,2%
"HUNK (Homo sapiens, UniProt P57058)",enzyme activity,9%
"MKNK1 (Homo sapiens, UniProt Q9BUB5)",,13%
"MARK3 (Homo sapiens, UniProt P27448)",enzyme activity,7%

# Sample 3
# Cell line: normal organoid sample D
# Technique: CellTiter-Glo
# Host: human
# Concentration: 1 µM
# Time: 4 days
# Baseline: DMSO
SMILES,viability
CN(C)C(=O)Cn1cc(-c2nc(C3(c4ccc(-c5cnc(N)nc5)cc4)CC3)no2)cn1,87.2% and 108%
NS(=O)(=O)c1cc(NC(=O)Cc2ccccc2)ccc1Oc1cccc(Cl)c1,108% and 85.3%
NS(=O)(=O)c1cc(NC(=O)C2(c3ccccc3Cl)CC2)ccc1Oc1cccc(Cl)c1,104% and 86.5%
O=C(O)[C@@H]1[C@@H](Cn2nnc3ccccc3c2=O)CC[C@H]1C(=O)c1ccc(OCCC2CCOCC2)cc1,132% and 122%
CN(C)c1ncnc(-c2ccc3nc(Nc4cc(CN5CCN(C(=O)CC(F)(F)F)CC5)ccn4)[nH]c3c2)c1Cl,91% and 78.9%
CCCCN(CCCC)C(=O)CN1C[C@@H](c2cc(OC)c3c(c2)OCO3)[C@H](C(=O)O)[C@H]1CC(C)(C)CCC,113% and 139%
O=C(NCc1ncc(C(F)(F)F)cc1Cl)c1ccc2c(c1)C1(CCS(=O)(=O)CC1)[C@@H](C1CC1)N2S(=O)(=O)c1ccc(F)cc1,122% and 116%
C[C@H](c1ccnc(Nc2nc3ccc(-c4cc(N(C)C)ncn4)cc3[nH]2)c1)N1CCN(C(=O)CC(F)(F)F)CC1,94.2% and 81.5%
C[C@H](c1ccc(F)cc1)N(Cc1ccc(Cl)c(C(=O)O)c1)C(=O)c1cnc2ccccc2c1,110% and 115%
C[C@H](c1ccc(F)cc1)N(Cc1cccc(C(=O)O)c1)C(=O)c1cnc2ccccc2c1,88.9% and 106%
Cc1c(NC(=O)c2cc(C(N)=O)nc3cc(F)ccc23)c(C(F)(F)F)nn1Cc1ccc(C#N)cc1,22.7% and 29.2%
C[C@@]1(Cc2ccc(C#N)cc2)C(=O)N(c2cc(Cl)cc(Cl)c2)c2ncc(C(=O)NC3(c4nc(C5CCC5)no4)CC3)n21,79.2% and 89.2%

# Sample 4
# Target: Mitogen-activated protein kinase kinase kinase 7 (MAP3K7, Homo sapiens, UniProt O43318)
# Sequence of UniProt O43318 (whole entry, looked up): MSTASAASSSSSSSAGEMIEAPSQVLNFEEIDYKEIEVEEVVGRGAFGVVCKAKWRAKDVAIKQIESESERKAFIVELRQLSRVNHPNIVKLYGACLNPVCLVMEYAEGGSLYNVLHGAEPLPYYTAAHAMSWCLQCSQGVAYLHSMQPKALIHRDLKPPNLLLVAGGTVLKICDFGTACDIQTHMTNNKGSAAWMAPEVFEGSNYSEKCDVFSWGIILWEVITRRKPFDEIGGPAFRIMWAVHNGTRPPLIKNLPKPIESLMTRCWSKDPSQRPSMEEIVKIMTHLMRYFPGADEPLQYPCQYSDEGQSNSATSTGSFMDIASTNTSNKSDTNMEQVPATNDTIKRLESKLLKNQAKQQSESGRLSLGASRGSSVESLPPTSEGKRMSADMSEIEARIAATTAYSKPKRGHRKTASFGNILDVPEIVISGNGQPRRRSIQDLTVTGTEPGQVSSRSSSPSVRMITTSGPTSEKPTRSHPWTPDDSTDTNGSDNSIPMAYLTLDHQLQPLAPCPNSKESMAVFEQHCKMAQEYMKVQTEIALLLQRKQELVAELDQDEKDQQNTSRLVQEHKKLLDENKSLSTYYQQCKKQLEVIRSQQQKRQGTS
# Observed: enzyme activity
# Mode: inhibitor
# Concentration: 0.5 µM
# Baseline: control
SMILES,remaining activity
NC(=O)c1cccc(-c2cc(Nc3ccc(OC(F)(F)F)cc3)ncn2)c1,99.1%
O=C(c1ccccc1)c1ccc(N2CCOCC2)cc1O,101%
c1cc(-c2cnn3cc(-c4ccc(OCCN5CCCCC5)cc4)cnc23)ccn1,49.7%
COc1cc2c(Nc3ccc(Br)cc3F)ncnc2cc1OCC1CCN(C)CC1,93.9%
Clc1ccc(Nc2nnc(Cc3ccncc3)c3ccccc23)cc1,99.6%
C[C@@H](N)[C@H]1CC[C@H](C(=O)Nc2ccncc2)CC1,96.8%
CNc1cc2c(Nc3cccc(Br)c3)ncnc2cn1,94.9%
NC(=O)c1ccc(-c2nc(-c3ccc4c(c3)OCCO4)c(-c3ccccn3)[nH]2)cc1,104%
O=C1NC(=O)/C(=C/c2ccc3c(c2)OC(F)(F)O3)S1,95.3%
CC(C)(C)c1nc2c3cc[nH]c(=O)c3c3cc(F)ccc3c2[nH]1,46.6%
COc1cc2c(N3CCN(C(=O)Nc4ccc(OC(C)C)cc4)CC3)ncnc2cc1OCCCN1CCCCC1,91.8%
FC(F)(F)c1ccc(/C=C/c2nc(COc3ccc(CCCCn4ccnn4)cc3)co2)cc1,88.7%
CC(C)n1cnc2c(Nc3cccc(Cl)c3)nc(NCCO)nc21,92.7%
O=C1c2ccccc2-c2nc3nnnn3nc21,89.8%
N#C/C(=C(/N)SC1C=CC=CC1)c1cccc(C(O)c2ccncc2)c1 (stereo not drawn),108%
CCCCc1c(-c2ccc(O)cc2)[nH]c2nccnc12,80.3%
O=c1c(-c2ccc(F)cc2)c(-c2ccncc2)[nH]n1-c1ccc(Cl)cc1,100%
CCN(CC)CCCCN1c2ccccc2Oc2ccc(Cl)cc21,102%
CC(C)N(CCC(=O)c1ccc2ccccc2c1)Cc1ccccc1,95.4%
O=C(O)/C=C/c1cc(Br)c(Br)c(Br)c1Br,98.4%
Nc1nc(Nc2ccc(S(N)(=O)=O)cc2)nn1C(=S)Nc1c(F)cccc1F,12.5%
N#CC(c1ccnc(NCCc2cccnc2)n1)c1nc2ccccc2s1 (stereo not drawn),91.5%

# For quick reference, copied from above (sample 4):
SMILES,remaining activity
O=C(c1ccccc1)c1ccc(N2CCOCC2)cc1O,101%
c1cc(-c2cnn3cc(-c4ccc(OCCN5CCCCC5)cc4)cnc23)ccn1,49.7%
COc1cc2c(Nc3ccc(Br)cc3F)ncnc2cc1OCC1CCN(C)CC1,93.9%
Clc1ccc(Nc2nnc(Cc3ccncc3)c3ccccc23)cc1,99.6%
C[C@@H](N)[C@H]1CC[C@H](C(=O)Nc2ccncc2)CC1,96.8%
CNc1cc2c(Nc3cccc(Br)c3)ncnc2cn1,94.9%
NC(=O)c1ccc(-c2nc(-c3ccc4c(c3)OCCO4)c(-c3ccccn3)[nH]2)cc1,104%
O=C1NC(=O)/C(=C/c2ccc3c(c2)OC(F)(F)O3)S1,95.3%
CC(C)(C)c1nc2c3cc[nH]c(=O)c3c3cc(F)ccc3c2[nH]1,46.6%
COc1cc2c(N3CCN(C(=O)Nc4ccc(OC(C)C)cc4)CC3)ncnc2cc1OCCCN1CCCCC1,91.8%
FC(F)(F)c1ccc(/C=C/c2nc(COc3ccc(CCCCn4ccnn4)cc3)co2)cc1,88.7%
